Published values collected from several papers.
Numbered parts are unrelated; each lists some results of a single study. Changes are numbered by the printed parent chain.

Set 1 — target: CCNB1, cyclin fold, Cln2 fusion (human); method: yeast growth competition, sequencing; medium: yeast; setting: weak parent motif; relative to: not given; direction: higher = stronger binding
Starting sequence: SCAPER docking peptide (human); SNARRSLNFGGST
For `SNARRSLNFKGST [G10K]`, “normalised enrichment score” read 0.203.
`SNARRSLNFWGST [G10W]` — result for “normalised enrichment score”: 0.431.
`SAARRSLNFGGST [N2A]`: “normalised enrichment score” 0.856.
Under “normalised enrichment score”, `SVARRSLNFGGST [N2V]` is recorded as 0.683.
For `SNARRYLNFGGST [S6Y]`, “normalised enrichment score” read 0.248.
Under “normalised enrichment score”, `SNARRSLNFDGST [G10D]` is recorded as 0.197.
`SNARYSLNFGGST [R5Y]`: “normalised enrichment score” 0.251.
Under “normalised enrichment score”, `SNAERSLNFGGST [R4E]` is recorded as -0.124.
Under “normalised enrichment score”, `TNARRSLNFGGST [S1T]` is recorded as 0.689.

Set 2 — method: RNA Bind-n-Seq; form: RNA; medium: in vitro; tested at: 200 nM; setting: whole 134-nt RNA, ends assumed; with: 150 mM LiCl; relative to: input library; direction: higher = stronger binding; each molecule: 7-deaza-guanosine replaces G
Target: Ras GTPase-activating protein-binding protein 1, full length (G3BP1, Homo sapiens, UniProt Q13283)
UniProt Q13283, sequence (whole entry, looked up): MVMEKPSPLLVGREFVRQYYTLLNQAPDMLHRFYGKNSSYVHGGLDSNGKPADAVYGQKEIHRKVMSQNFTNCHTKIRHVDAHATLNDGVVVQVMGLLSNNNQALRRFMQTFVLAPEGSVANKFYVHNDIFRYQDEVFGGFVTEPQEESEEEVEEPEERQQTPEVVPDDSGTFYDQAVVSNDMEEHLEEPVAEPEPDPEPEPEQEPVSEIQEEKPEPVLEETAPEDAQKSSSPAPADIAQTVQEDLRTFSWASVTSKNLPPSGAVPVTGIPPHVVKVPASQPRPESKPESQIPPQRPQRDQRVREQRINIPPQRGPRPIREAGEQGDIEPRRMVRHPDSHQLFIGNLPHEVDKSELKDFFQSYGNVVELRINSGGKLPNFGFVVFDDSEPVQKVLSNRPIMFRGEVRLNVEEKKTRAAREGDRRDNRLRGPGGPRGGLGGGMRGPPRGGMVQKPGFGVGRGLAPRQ
The log2 enrichment of `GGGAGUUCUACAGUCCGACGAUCAAGUCCUGUGCUACACAUCGUAUGUACCGAAUCGGGUUUUUGGUUUUUGGUUUUUGGAAAGUAUUAUGUUACGCCGUUCGGAUCUGCACUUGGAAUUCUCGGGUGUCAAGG` is reported as -0.543.
`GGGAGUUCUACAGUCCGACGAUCUUAAGAAUAUUUAGAUAUUUGUAAAAGAAUUUGAAUGAUUUAUUUAAUAUAACGUUUAUUUUAUUAGCUCUAUUCCAAUUGAUUACAACCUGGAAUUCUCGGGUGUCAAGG` has a log2 enrichment of -2.65.
For `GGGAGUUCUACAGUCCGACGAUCAAGUCCUGUGCUACACAUCGUAUGUACCGAAUCGGGUUUGGGAAAAAAAGGGAGGGAAAGUAUUAUGUUACGCCGUUCGGAUCUGCACUUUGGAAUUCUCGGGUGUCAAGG`, the log2 enrichment was -0.0147.
With `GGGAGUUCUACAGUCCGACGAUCAGUCCUGUGCUACACAUCGUAUGUACCGAAUCGGGAAAAAGGAAAAAGGAAAAAGGGGAAAGUAUUAUGUUACGCCGUUCGGAUCUGCACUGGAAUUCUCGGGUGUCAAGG` the log2 enrichment was -0.321.
For `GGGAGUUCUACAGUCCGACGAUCUCCUGUGCUACACAUCGUAUGUACCGAAUCAAAGUGUGUGUGUAAAGUGUGUGUGUAAAAAAGUAUUAUGUUACGCCGUUCGGAUCUGCAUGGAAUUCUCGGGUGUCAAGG`, the log2 enrichment was -1.24.
For `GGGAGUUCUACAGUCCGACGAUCGGGGACGGCAAAACAGAACAGAAAGGCGGAGAUAAAAAGAGGGGUGUUAAAAGACCACGAGAAGAUCAUGGCCGUGGAUAUUUUGAGUACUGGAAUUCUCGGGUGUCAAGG`, the log2 enrichment was 0.577.
For `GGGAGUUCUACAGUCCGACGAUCGUCCUGUGCUACACAUCGUAUGUACCGAAUCGGGGUUUUUGGGGAAAGGGGUUUGGGGAAAGUAUUAUGUUACGCCGUUCGGAUCUGCACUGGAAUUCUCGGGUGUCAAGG`, the log2 enrichment was -0.756.
`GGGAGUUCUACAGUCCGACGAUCUCAAGUCCUGUGCUACACAUCGUAUGUACCGAAUCGGUUUGGAAAAAAAGGAGGAAAGUAUUAUGUUACGCCGUUCGGAUCUGCACUUCCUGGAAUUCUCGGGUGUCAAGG` gave a log2 enrichment of -0.307.
`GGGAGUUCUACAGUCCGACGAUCUGGCCCUGGUGGCAUGCGGGGAGGAAGAGGUGGCCUCAUGGAUCGUGGUGGUCCCGGUGGAAUGUUCAGAGGUGGCCGUGGUGGUGACAGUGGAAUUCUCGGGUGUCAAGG` has a log2 enrichment of -0.0866.
With `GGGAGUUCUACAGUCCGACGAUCAGUCCUGUGCUACACAUCGUAUGUACCGAAUCGGGGUGGGGAAAGGGGUUUUUGGGGAAAGUAUUAUGUUACGCCGUUCGGAUCUGCACUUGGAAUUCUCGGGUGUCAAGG` the log2 enrichment was -0.0828.
The log2 enrichment of `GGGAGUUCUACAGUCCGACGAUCCACAGACAACACGCACCCACACAGACACAGAGGGAAGGGGUUGAGAUGGGGACAGGGUGCACAGCAGGGCGGGGUAGGACCCCAGCCCCUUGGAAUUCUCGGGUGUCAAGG` is reported as -0.932.

Set 3 — method: Sort-seq; measured: YFP reporter; medium: E. coli; setting: PhoQ-PhoP variant library; with: 10 µM Mg2+; relative to: high Mg2+ state; direction: higher = stronger signaling
Molecule: PhoQ, residues 284 288 289 292 302 303 NLMGRA
It gave 11.6 for fold induction (PhoP, residues 12 14 15 18 19 TQCLL (Escherichia coli, UniProt P23836)).
The fold induction was 11.8 (PhoP, residues 12 14 15 18 19 ICWRQ (Escherichia coli, UniProt P23836)).
It gave 12 for fold induction (PhoP, residues 12 14 15 18 19 VHTVL (Escherichia coli, UniProt P23836)).

Set 4 — method: RNA Bind-n-Seq; form: RNA; medium: in vitro; tested at: 365 nM; relative to: no-protein control; direction: higher = stronger binding
Target: RNA binding protein fox-1 homolog 2, RRM domain, GST-SBP tag (RBFOX2, Homo sapiens, UniProt O43251-10, residues 100-194)
Setting: natural RNA segment, single round, ends assumed
Residues (chain): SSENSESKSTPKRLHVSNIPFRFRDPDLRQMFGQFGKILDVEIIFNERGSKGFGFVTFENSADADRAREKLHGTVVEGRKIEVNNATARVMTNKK
For `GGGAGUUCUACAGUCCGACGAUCGUAGUCUUAAAACUCUAAAACAGUUGUACUGCUUCCAAGCAGCAGUAUUUAUAGUAACGUAAGCUAUUAAUGCUAACUCUUGCAUGUCAAGAAACAUUAGUCUUAGGAAUUGGAAUUCUCGGGUGCCAA`, “RBNS enrichment (R)” read 0.399.
`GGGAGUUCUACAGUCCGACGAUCUAACCUUUUUAGGAAUAUGGAGAUAAAGAUUGUUUUUCUGAUUUUCUUCCAUCUGAAGUUUGACUUUUAUACCCAGCCAGAAGUUACAAAAUGAUGACCCACUCUGGGUAUGGAAUUCUCGGGUGCCAA`: “RBNS enrichment (R)” 0.322.
For `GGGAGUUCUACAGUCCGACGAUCAGAAAACAGCAAGCGAUGGCUGAUAAAUCUUAUCUUGCCAGAGGUAGUUUUUGAACAAGAAAAAGAACUUUGUAAAUCAUAUCAUUGGGAAAGUAUUUUCAAUAUUUAAAUGGAAUUCUCGGGUGCCAA`, “RBNS enrichment (R)” read 0.683.
`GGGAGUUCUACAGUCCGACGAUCCAUAUAAAUUCUGAUUUAAGGUCCUAAAUUCUUAACCUGGAACUGGAGUUGGCAAUACCUAGUUCUGCUUCUGAAACUGGAGUAUCAUUCUUUACAUAUUUAUAUGUAUGUGGAAUUCUCGGGUGCCAA` — result for “RBNS enrichment (R)”: 0.347.
For `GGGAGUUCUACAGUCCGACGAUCCUGAGAGCAUCACUAUCAGGCAUGUGUUACCAAAAAACUGGCAGAAUCAGAAACUCAUUUACAUAAUGUAAAAGUGAAUCUAAAUAAAUCAUGAUUUAAACAGUCUAAAAUGGAAUUCUCGGGUGCCAA`, “RBNS enrichment (R)” read 0.772.
`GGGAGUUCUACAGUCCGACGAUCCUUACCUCCAAUCCAGUUAGAGCAAUAACCACUUUUUAAAUGUAAAAUAAAGACAAAUGAAAAGGCACAUCCUUGUCUUUUGGUAAAUGCCCAAACGUUGCCCUCUUUUUUGGAAUUCUCGGGUGCCAA` — result for “RBNS enrichment (R)”: 0.52.
Under “RBNS enrichment (R)”, `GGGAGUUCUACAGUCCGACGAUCUCUUGCCCUGUAACCCAUAUCUACUGUUCUGGCGACAAAAGACAGAUGUUAAGUGUAACAGAUAAUUGGAGCUACGAGCCAUUCAGCUUCAGCCUUUCCAGACCACACACUGGAAUUCUCGGGUGCCAA` is recorded as 0.371.
`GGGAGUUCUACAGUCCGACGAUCUAAGUCUGAUUCUCUUUAACUGUGUGACCAGCGGAAACAGGUGUGUGUGAACUGGGCACAGAUUGAAGAAUCUGCCCCUGUUGAGGUGGGUGGGCCUGACUGUUGCCCCCUGGAAUUCUCGGGUGCCAA`: “RBNS enrichment (R)” 0.565.
Under “RBNS enrichment (R)”, `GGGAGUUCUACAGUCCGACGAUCUGACUUUUCAGCCAGUACCAUUUUAUUUACCUGAGCUUGUCAUGGAAGUGGCAGUAAAAAGUAUUGAGUGUUUUAUGCUGGUGACUGUAACCAAUGUCAUCUUGCUAAAUUGGAAUUCUCGGGUGCCAA` is recorded as 0.399.
`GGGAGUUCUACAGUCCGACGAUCAUCUCUUGGCCCGCCGCGUGGACCCUCCCUUCAGGCCAAGUCUGCAAUCAGAAGAGGAUGUGAGCCAGUUUGAUGCACGAUUCACACGGCAGACGCCGGUAGAUAGUCCAUGGAAUUCUCGGGUGCCAA`: “RBNS enrichment (R)” 0.772.
`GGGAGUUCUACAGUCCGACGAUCGACUUCAUCCUGCCUUUGUCUUCGAAGCUAUCAGGGAACUGCGGGGUCCCAAAUAUGAUAAUCACGUGGCACCUCUGGCAUUGCUCCCUUGGGCUGUCACUGGGGACUGGUGGAAUUCUCGGGUGCCAA`: “RBNS enrichment (R)” 0.478.
`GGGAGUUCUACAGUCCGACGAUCCCUUGGGCUGUCACUGGGGACUGGCAGUGCCUAGUGAGAGAGAGCAUCAUACUUCAUGAUGUCAGAGUGUCUUGUCACGGUUUGGACUUAACUUCCCUCUAUAGUCAGCAUGGAAUUCUCGGGUGCCAA`: “RBNS enrichment (R)” 2.78.
